Results gathered from unrelated publications.
Parts stem from different laboratories: compare values within a part only. Positions count from the first letter of the parent shown.

Series 1 — method: protein-binding microarray; molecule type: double-stranded DNA, one strand shown; sample: in vitro; concentration: 940 nM top; setting: 60-bp whole probe; together with: salmon DNA 0.4 mg/ml; relative to: random background probes; direction: higher = stronger binding; quantity: fitted relative affinity; shared flanks, not repeated: GCCTAGCAC … GTCTTGATTCGCTTGACGCTGCTG
Target: Interferon regulatory factor 5, full length, phosphomimetic (IRF5, Homo sapiens, UniProt Q13568-2, residues 1-514, S451D/S453D/S456D/S462D)
Sequence = TTAGGTCTTGGTTTCGGTTAGTGCTAG; value = 9.52 z-score
Sequence = TTAGATTTCCGGACTGGATTAGTGCTA; value = -0.228 z-score
Sequence = GCAGGAGAGACAGAAGTTATGTGCTAG; value = -0.797 z-score
Sequence = GTAGGACTGCTACTGCTTTAGTGCTAG; value = -0.681 z-score
Sequence = ACATATATACAGAGATAGATGTGCTAG; value = 0.0279 z-score

Series 2 — method: universal PBM; molecule type: double-stranded DNA, one strand shown; sample: in vitro; concentration: 600 nM; direction: higher = stronger binding; quantity: E-score
Target: Sal-like protein 4, full length isoform A (SALL4, Homo sapiens, UniProt Q9UJQ4, residues 1-1053)
UniProt Q9UJQ4, sequence (whole entry, looked up): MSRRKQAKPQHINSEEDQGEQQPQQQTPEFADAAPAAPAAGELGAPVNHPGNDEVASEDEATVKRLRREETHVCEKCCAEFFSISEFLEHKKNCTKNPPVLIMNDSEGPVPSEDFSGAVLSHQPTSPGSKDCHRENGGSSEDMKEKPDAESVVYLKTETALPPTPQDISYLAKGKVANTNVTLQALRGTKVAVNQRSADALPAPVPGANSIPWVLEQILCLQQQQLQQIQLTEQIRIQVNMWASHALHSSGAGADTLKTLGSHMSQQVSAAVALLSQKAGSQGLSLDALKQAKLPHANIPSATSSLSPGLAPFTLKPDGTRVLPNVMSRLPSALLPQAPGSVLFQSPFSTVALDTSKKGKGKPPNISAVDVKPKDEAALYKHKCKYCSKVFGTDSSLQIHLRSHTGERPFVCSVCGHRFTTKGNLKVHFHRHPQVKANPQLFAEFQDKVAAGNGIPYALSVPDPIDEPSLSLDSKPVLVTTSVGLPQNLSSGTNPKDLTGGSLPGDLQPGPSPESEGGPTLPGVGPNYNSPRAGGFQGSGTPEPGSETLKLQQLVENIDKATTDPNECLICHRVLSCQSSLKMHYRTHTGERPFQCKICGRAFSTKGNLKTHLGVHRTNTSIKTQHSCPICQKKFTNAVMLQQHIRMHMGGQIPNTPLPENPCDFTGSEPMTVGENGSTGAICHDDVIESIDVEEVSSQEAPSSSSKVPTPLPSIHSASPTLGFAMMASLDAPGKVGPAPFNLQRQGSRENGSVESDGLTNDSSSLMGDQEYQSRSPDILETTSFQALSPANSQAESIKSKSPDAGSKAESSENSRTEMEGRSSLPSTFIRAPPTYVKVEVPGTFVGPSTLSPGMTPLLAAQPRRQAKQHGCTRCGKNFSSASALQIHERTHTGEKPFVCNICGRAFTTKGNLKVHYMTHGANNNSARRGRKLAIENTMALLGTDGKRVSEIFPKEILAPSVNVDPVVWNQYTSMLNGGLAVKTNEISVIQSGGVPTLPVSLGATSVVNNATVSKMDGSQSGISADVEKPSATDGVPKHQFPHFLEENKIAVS
Setting: 8-mer, flanks averaged, mean of replicates
Sequence = CTAGCACA; value = -0.0366
Sequence = CCTCTGAC; value = -0.163
Sequence = AACCGGCT; value = -0.101
Sequence = AGGCTCGG; value = -0.17
Sequence = AATGATCA; value = 0.257
Sequence = ATTTTTTC; value = 0.368
Sequence = TACTCTGA; value = 0.0982

Further values, each from its own experiment — CCNB3: CCNB3, cyclin fold, Cln2 fusion (human)
P1: PKN2 docking peptide (human); VSAVRKLDFSDTM; partner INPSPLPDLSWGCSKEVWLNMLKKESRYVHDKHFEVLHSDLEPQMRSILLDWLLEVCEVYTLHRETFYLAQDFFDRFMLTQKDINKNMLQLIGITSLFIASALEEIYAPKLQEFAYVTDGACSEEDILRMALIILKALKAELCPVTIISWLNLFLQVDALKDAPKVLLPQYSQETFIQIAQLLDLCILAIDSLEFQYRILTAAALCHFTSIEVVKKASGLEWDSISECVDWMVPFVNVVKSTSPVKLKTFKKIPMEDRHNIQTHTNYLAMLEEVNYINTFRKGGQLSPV
P2: CDC6 docking peptide (human); TLKGRRLVFDNQL; partner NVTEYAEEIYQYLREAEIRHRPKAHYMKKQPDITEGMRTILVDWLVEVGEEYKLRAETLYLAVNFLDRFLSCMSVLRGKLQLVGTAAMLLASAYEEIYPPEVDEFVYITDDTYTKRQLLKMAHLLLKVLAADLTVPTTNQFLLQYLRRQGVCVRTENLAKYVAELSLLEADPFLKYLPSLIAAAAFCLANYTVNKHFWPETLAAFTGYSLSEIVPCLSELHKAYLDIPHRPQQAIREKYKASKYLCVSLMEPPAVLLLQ
P3: MASTL docking peptide (human); PMIAKNLMCELDE; partner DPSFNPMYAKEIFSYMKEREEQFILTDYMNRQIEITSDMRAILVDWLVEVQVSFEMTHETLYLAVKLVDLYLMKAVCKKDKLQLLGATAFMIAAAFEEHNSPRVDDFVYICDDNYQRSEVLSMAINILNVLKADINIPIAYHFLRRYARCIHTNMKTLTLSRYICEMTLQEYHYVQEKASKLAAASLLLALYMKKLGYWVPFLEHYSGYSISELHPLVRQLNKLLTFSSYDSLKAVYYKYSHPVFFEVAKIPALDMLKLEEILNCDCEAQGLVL
Molecule = P1 S10R; target = CCNE2, cyclin fold, Cln2 fusion (human); assay = yeast growth competition, sequencing; system = yeast; setting = strong parent motif; how to read = relative to: not given, higher = stronger binding; quantity = normalised enrichment score; value = 3.59
Molecule = PhoQ, residues 284 288 289 292 302 303 TNSAEL; target = PhoP, residues 12 14 15 18 19 NFCKL (Escherichia coli, UniProt P23836); assay = Sort-seq, measured: YFP reporter; system = E. coli; setting = PhoQ-PhoP variant library, together with: 10 µM Mg2+; how to read = relative to: high Mg2+ state, higher = stronger signaling; quantity = fold induction; value = 1.08
Molecule = P2 F9K; target = CCNA1, cyclin fold, Cln2 fusion (human); assay = yeast growth competition, sequencing; system = yeast; setting = weak parent motif; how to read = relative to: not given, higher = stronger binding; quantity = normalised enrichment score; value = 0.705
Molecule = P3 A4E; target = CCNB3; assay = yeast growth competition, sequencing; system = yeast; setting = weak parent motif; how to read = relative to: not given, higher = stronger binding; quantity = normalised enrichment score; value = -0.248
Molecule = P3 E10M; target = CCNB3; assay = yeast growth competition, sequencing; system = yeast; setting = weak parent motif; how to read = relative to: not given, higher = stronger binding; quantity = normalised enrichment score; value = 0.098

A few entries again (series 1):
Sequence = GTAGGACTGCTACTGCTTTAGTGCTAG; value = -0.681 z-score
